# Results from different studies.
# Each numbered part is a random draw from the data of one study; scales do not carry over between parts.

# Sample 1
# Target: POU domain, class 5, transcription factor 1, POU domain (Pou5f1, Mus musculus, UniProt P20263, residues 131-289)
# Sequence of UniProt P20263 (131-289, looked up): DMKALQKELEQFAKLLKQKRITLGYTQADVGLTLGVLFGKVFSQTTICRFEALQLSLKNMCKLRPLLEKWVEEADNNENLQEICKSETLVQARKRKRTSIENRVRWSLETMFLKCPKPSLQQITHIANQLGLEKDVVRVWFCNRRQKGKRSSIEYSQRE
# Method: Spec-seq
# Form: double-stranded DNA, one strand shown
# Matrix: in vitro
# Concentration: not given
# Setting: whole probe, mean of replicates
# Relative to: not given
# Reading: lower = stronger binding
# All sequences stand within: GAGTCGTCTCGTCAGCAC … CCGTAGAGCACTCAGGTC
Sequence,relative binding energy
ATCAGAAT,-0.412 ln ratio
TCTATAAT,0.63 ln ratio
TCGATAAT,0.673 ln ratio
ATGCTAGG,0.601 ln ratio
ATACCGAT,0.564 ln ratio
ATGCGAAT,-0.15 ln ratio
ATGCATGA,-0.533 ln ratio
ATTATCAT,-1.43 ln ratio

# Sample 2
# Target: Histone acetyltransferase KAT6A, winged helix 2, GST fusion (KAT6A, Homo sapiens, UniProt Q92794, residues 85-181)
# Method: protein binding microarray
# Form: double-stranded DNA, one strand shown
# Matrix: in vitro
# Concentration: not given
# Setting: 8-mer, flanks averaged, mean of 2 arrays, mostly near background
# Relative to: not given
# Reading: higher = stronger binding
# Residues (chain): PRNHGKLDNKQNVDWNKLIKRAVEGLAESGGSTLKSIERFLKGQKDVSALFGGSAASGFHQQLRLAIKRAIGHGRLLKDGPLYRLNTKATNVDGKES
Sequence,E-score
AATGGAGG,-0.112
TCGTTCCA,-0.0682
ACCATGTG,-0.144
CCAGTGCA,0.0322
AAAAACTC,0.0887
CTTAATGA,-0.0894
CTACCATA,-0.199
ACGCTCAA,-0.0298

# Sample 3
# Target: Interferon regulatory factor 7, full length, phosphomimetic (IRF7, Homo sapiens, UniProt Q92985, residues 1-503, S101K/S471D/S472D/S475D/S476D/S477D/S483D/S484D/S487D)
# Method: protein-binding microarray
# Form: double-stranded DNA, one strand shown
# Matrix: in vitro
# Concentration: 250 nM
# Setting: 60-bp whole probe
# With: salmon DNA 0.4 mg/ml
# Relative to: random background probes
# Reading: higher = stronger binding
# All sequences stand within: GCCTAGCAC … GTCTTGATTCGCTTGACGCTGCTG
# Residues (chain): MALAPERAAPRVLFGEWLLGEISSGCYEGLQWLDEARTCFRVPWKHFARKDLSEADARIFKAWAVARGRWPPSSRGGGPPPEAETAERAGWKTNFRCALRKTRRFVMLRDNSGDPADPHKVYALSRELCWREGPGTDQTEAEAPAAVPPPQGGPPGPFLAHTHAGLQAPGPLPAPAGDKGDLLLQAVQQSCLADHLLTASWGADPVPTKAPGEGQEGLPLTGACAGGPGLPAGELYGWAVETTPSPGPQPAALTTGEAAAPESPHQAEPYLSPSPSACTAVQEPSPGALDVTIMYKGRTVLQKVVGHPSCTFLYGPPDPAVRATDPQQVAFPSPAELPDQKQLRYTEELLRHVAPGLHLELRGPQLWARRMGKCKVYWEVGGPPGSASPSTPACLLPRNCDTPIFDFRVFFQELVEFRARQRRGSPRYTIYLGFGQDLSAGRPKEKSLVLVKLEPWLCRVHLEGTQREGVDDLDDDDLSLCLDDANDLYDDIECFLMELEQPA
Sequence,log fluorescence
CACTTTGGATAACCAAAAACGTGCTAG,1.63 z-score
TTAGGCCTGGGGTATCGGTTAGTGCTA,0.258 z-score
GCAAATATATCAGTGAATTTGTGCTAG,0.0223 z-score
GACGATCTCAGACTGTAGACGTGCTAG,-0.324 z-score
GATGGACTGGGGTATCGGGACGTGCTA,-0.653 z-score
TTAGGTCTCGGTCCCGGTTAGTGCTAG,0.96 z-score
GACGGTATCGACACTGGGGACGTGCTA,-0.454 z-score
CAGCATGCCTGTCCCTGGGTGTGCTAG,-0.564 z-score

# Single results of other studies
Compound,test system,setting,measurement,result
O=C1CCC(N2Cc3cc(C4CCN(Cc5ccccc5)CC4)ccc3C2=O)C(=O)N1 (stereo not shown),"male Sprague Dawley rats, plasma","intravenous, 1.0 mg/kg",AUC(0-t),326 ng·h/mL

# Some of these lines once more (sample 1):
Sequence,relative binding energy
ATGCATGA,-0.533 ln ratio
